Published values from different studies.
Every numbered part comes from another study and shows a few of its results, in no order. Changes are numbered by the printed parent chain.

Series 1 — technique: RNAcompete; molecule type: RNA; matrix: in vitro; concentration: 20 nM; setting: 7-mer, probes averaged, single round; relative to: mean of 7-mers; reading: higher = stronger binding; quantity: 7-mer Z-score
Target: PABPC1L2, full length, GST fusion (mouse, UniProt A0ABA7IW68)
Target sequence (chain): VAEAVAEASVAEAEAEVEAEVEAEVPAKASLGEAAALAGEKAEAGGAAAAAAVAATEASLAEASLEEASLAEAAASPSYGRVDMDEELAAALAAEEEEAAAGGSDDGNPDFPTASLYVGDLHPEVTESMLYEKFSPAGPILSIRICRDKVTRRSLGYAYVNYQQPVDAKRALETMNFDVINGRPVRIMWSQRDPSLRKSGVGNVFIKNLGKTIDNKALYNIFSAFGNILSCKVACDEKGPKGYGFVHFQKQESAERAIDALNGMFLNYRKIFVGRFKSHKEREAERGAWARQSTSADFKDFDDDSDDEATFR
AUUCCUG: -0.157
GUGUUUC: -0.454
GACGUCC: -0.26
GUUCUGA: -0.316
GCAUGGG: 0.0895
CUCCAUG: -0.19
UACAGAG: 0.137
UCGAUCU: -0.264
CUGAGCC: -0.253
AGGUCGA: -0.0754
GACGCUG: -0.211
AGGGAUG: 0.26
CAUAGAG: -0.137
CCCCUAA: -0.22
GUUUUCA: -0.429
CUAAGCG: -0.351
CCCCACC: -0.429
ACGGUAC: 0.0334
CGCUCUU: -0.257

Series 2 — technique: DHFR PCA, deep sequencing; matrix: yeast; together with: (+)-ABA 2500 µM; relative to: wild-type fitted maximum; reading: higher = stronger binding; quantity: relative binding score
Target: ABI1, truncated, D143A, DHFR fusion (Arabidopsis thaliana)
Setting: methotrexate growth selection, single substitutions
Starting sequence: PYL1, truncated, DHFR fusion (Arabidopsis thaliana); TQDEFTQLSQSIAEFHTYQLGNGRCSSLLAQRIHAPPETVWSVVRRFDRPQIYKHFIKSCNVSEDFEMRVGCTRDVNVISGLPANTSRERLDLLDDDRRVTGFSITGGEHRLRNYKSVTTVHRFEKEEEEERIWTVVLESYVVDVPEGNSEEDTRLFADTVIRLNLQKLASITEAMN
D75I: 101%
G108L: 60.5%
N77S: 95.8%
R90M: 89.3%
L112C: 96.7%
R163V: 69.9%
L93S: 103%
R49E: 92.6%
F157K: 0.884%
T73V: 97.2%
R88L: 100%
R99P: 49.2%
E125H: 98.9%
W41C: 14.1%
F5G: 95.5%
H110V: 59.1%
N22G: 104%

Series 3 — technique: RNA Bind-n-Seq; molecule type: RNA; matrix: in vitro; concentration: 365 nM; relative to: no-protein control; reading: higher = stronger binding; quantity: RBNS enrichment (R)
Target: RNA binding protein fox-1 homolog 2, RRM domain, GST-SBP tag (RBFOX2, Homo sapiens, UniProt O43251-10, residues 100-194)
Setting: natural RNA segment, single round, ends assumed
All sequences stand within: GGGAGUUCUACAGUCCGACGAUC … UGGAAUUCUCGGGUGCCAA
Target sequence (chain): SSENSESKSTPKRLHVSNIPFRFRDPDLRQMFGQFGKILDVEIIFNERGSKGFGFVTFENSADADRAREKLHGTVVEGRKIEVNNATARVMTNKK
UUGUGUUGUGAAGGGGUAGAAGAUCUCUGAAACUUGUCUUGAGAUUGAACUCAUUCCCUGUUCCACAAACCCAUAUGUAUCCUUUCCUCUACCUCCUCCUUUCCCAAUUA: 0.516
CCUUGCUUUGGAGACUUUAAGACAUUUCCUAAAGCACAAAUAAAAGCCUCGUAUUUCCCCAUUGAGAGUUUUGUUCCAAGGAAUAUGAAGUGAGACAUAUGGGUGAGUCA: 0.539
CAACAUGUAAAAAAAGGGGGCAUGGAUUUACAUUGCAAAAGGUGUCCACAGUGUAUUAGUGACAUUCUUUCAUUGACAGCUGACAUAAUUCAUUGAGUGAAAUAUUUUAA: 0.595
CAGCAGCUGCUCGACAAGGGGCGCAGGGUGGCUGUCUUUGUUCCAGCACUGUUCAGGCUGCCUGUCAUCCCGGGCCUGCCAGCUCCCCUGAGUGAUGAGCACUUCCAAGC: 0.51
UUUUACACUCUCAACAGCCAAGCACUGCCACGGGGCAGCCACAAUGCCAUGCGUGCUCCAGAGCCUAGGAACAGCAGACAGAACCCAGUUGGAAUGCUUCUACCCUGGCU: 0.28
CCCCUCUCACAAACCAUAUAAACACAGGGAGGGGCUUUCUCACCACUUCUGAGGAGACUGUACAGCCCGUUUUGUGCCUGUGUGUGUGUUCAUGGCCUGUAAGUGUACCC: 0.545
UUUCUGACAGGCGGGUGCCAGUCUGCACUGCCCGCAGUGAGUGCAGGUUCUGUUUUUGAGUUUGGUAGUUUGCAAAGUGAGUACACUGAAGAAACGUUAGUUAGUGGGGC: 0.893
GAUAUGCCAAUAUUUGCUUUAAAUAUCAUAUCACUGUAUCUUCUCAGUCAUUUCUGAAUCUUUCCACAUUAUAUUAUAAAAUAUGGAAAUGUCAGUUUAUCUCCCCUCCU: 0.257
CUUUGACCUCUCCCACUCUCCAAAUGUAAUCUGGACCUCAUUGCUUUCAAGGUCAGCUUCCCCAUAGCUCAGGUAUCCUUUGCUCUCCUGUAUCUUCAUUUACUAUUAGU: 0.927
CAUGGUGCCUGCCCAGAGUCGAGCAGGGUCCCUGGUUAGGAUGACUGAGGAAACCAUGUUCAGAAGAGAAUAAAUGGACCGCCUUCAGGCAAGGGGGGAGCACUGCCUUC: 0.287
CCUCUGAGGGUAGAUUUUUUUUUUUAAUCCGGUCCCUUGGAUUUAAAAAUAAAAUUAAUUUUCUGUUAUAGUGGGCAUGUGAUGUCUUACUGCACUUGCUGUCUUUCCAA: 0.622
GCCUGCUGCCCUUUCCUGGCAGGGCUGGUGGAGUCUUCCCUCAAAGCAUGCCUUACCCAGCUGGGAAGUCUCUGCCCUGAUCUGGUACUCCUUGUAGUAAGCUGUUUUCU: 5.4

Series 4 — target: UBE2Q2 UBC core domain (UniProt Q8WVN8); technique: yeast two-hybrid; matrix: yeast; setting: mostly zero background; relative to: not given; reading: higher = stronger interaction; quantity: lacZ reporter activity
Chain of UniProt Q8WVN8 (whole entry, looked up): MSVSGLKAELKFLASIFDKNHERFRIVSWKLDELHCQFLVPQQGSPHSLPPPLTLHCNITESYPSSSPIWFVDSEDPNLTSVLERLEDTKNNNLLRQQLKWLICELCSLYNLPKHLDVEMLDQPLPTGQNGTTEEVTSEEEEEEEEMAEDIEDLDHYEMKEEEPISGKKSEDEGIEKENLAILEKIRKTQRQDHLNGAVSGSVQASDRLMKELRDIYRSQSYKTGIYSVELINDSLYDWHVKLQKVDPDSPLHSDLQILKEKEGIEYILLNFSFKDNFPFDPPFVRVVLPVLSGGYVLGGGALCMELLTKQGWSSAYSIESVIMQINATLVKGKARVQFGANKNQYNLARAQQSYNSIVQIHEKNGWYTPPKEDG
B1: TRIM8 RING domain (UniProt Q9BZR9); chain WKNCFEEELICPICLHVFVEPVQLPCKHNFCRGCIGEAWAKDSGLVRCPECNQAYNQKPGLE
B2: ZNF598 RING domain (UniProt Q86UK7); chain AAAPERGGGSCVLCCGDLEATALGRCDHPVCYRCSTKMRVLCEQRYCAVCREELRQVVFGK
B3: ARK2C RING domain (UniProt Q6ZSG1); chain EGEESDTDEKCTICLSMLEDGEDVRRLPCMHLFHQLCVDQWLAMSKKCPICRVDIETQLGAD
B4: RNF170 RING domain (UniProt Q96K19); chain TRQQFYTDMYCPICLHQASFPVETNCGHLFCGACIIAYWRYGSWLGAISCPICRQTVTLLLTVF
B5: UHRF2 RING domain (UniProt Q96PU4); chain CGGDPEKKCHSCSCRVCGGKHEPNMQLLCDECNVAYHIYCLNPPLDKVPEEEYWYCPSCKTDSSEVVKAGER
B1 (TRIM8 RING domain): 0
FASPPDSNFVCSVCHGVLKRPARLPCSHIFCKKCILRWLARQKTCPCCRKEVKRKKVVH (RNF151 RING domain (UniProt Q2KHN1)): 0
B2 (ZNF598 RING domain): 0
EDEVSDNSAECVVCLSDVRDTLILPCRHLCLCNTCADTLRYQANNCPICRLPFRALLQIR (RNF157 RING domain (UniProt Q96PX1)): 0
QHHELTSLFECPVCFDYVLPPILQCQAGHLVCNQCRQKLSCCPTCRGALTPSIRNL (SIAH2 RING domain (UniProt O43255)): 0
PEELQAMDNVCIICREEMVTGAKRLPCNHIFHTSCLRSWFQRQQTCPTCRMDVLRASLPA (SYVN1 RING domain (UniProt Q86TM6)): 0
YWAMDSTFELCKICAESNKDVKIEPCGHLLCSCCLAAWQHSDSQTCPFCRCEIKGWEAVS (CBLC RING domain (UniProt Q9ULV8)): 0
DAIPSLSECQCGICMEILVEPVTLPCNHTLCKPCFQSTVEKASLCCPFCRRRVSSWTRYH (RNF168 RING domain (UniProt Q8IYW5)): 0
B3 (ARK2C RING domain): 0
B4 (RNF170 RING domain): 0
B5 (UHRF2 RING domain): 0
VTLSLTLPITCHICLGKVRQPVICINNHVFCSICIDLWLKNNSQCPACRVPITPENPCK (OBI1 RING domain (UniProt Q5W0B1)): 0
FPEHFVKSISCQICEHILADPVETNCKHVFCRVCILRCLKVMGSYCPSCRYPCFPTDLES (RAG1 RING domain (UniProt P15918)): 0

Series 5 — target: CCNB1, cyclin fold, Cln2 fusion (human); technique: yeast growth competition, sequencing; matrix: yeast; setting: strong parent motif; relative to: not given; reading: higher = stronger binding; quantity: normalised enrichment score
Starting sequence: INSM1 docking peptide (human); PKAIRKLHFEDEV; partner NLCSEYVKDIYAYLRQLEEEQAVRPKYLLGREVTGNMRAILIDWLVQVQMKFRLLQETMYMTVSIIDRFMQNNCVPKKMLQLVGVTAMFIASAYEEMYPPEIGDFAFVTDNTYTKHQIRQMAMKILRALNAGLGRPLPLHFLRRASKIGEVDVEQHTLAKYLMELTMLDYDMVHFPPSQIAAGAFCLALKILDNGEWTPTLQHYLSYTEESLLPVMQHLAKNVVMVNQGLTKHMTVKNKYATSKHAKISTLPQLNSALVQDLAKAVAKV
PPAIRKLHFEDEV [K2P]: 3.08
PKAIRKWHFEDEV [L7W]: -0.0051
PKAIPKLHFEDEV [R5P]: 0.191
PKAIRKLHNEDEV [F9N]: 0.0387
PKAIRNLHFEDEV [K6N]: 0.7
PKAIRKCHFEDEV [L7C]: 0.252
PKIIRKLHFEDEV [A3I]: 4.48
PKAIRKLHTEDEV [F9T]: 0.0557
PKAINKLHFEDEV [R5N]: 0.177
PKAIRKLHYEDEV [F9Y]: 0.964
PKDIRKLHFEDEV [A3D]: 0.0138
PKAIRRLHFEDEV [K6R]: 2.12
PKAIRKLHFEDMV [E12M]: 1.51
PKAIRKLHFVDEV [E10V]: 0.925
PKAIRKLHAEDEV [F9A]: -0.158
PKAFRKLHFEDEV [I4F]: 1.26
PKAIRKLHFLDEV [E10L]: 0.775
PKAIRKLHFEDQV [E12Q]: 1.05
PKAIRKLHFEDAV [E12A]: 1.69

Series 6 — technique: RNA Bind-n-Seq; molecule type: RNA; matrix: in vitro; concentration: not given; setting: 4-mer, random 30-nt RNA, single round; together with: RocA, ADP, phosphate; relative to: input library; reading: higher = stronger binding; quantity: 4-mer enrichment
Target: ATP-dependent RNA helicase DDX3X, helicase core (DDX3X, Homo sapiens, UniProt O00571, residues 132-607)
Chain of UniProt O00571 (132-607, looked up): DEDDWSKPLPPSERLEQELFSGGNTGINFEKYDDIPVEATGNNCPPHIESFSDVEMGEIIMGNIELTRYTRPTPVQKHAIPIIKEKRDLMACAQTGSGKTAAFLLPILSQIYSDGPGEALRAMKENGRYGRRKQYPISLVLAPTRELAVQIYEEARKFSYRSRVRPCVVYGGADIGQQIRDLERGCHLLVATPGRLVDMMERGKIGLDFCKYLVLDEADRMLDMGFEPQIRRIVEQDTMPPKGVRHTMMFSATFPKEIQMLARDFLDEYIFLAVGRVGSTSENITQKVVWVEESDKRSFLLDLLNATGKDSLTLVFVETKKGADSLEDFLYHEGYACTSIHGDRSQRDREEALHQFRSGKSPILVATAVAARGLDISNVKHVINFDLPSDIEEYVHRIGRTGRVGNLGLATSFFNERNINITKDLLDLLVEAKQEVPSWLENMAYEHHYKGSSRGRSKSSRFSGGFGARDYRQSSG
GGCC: 0.717 fold
CAUG: 0.84 fold
GUCU: 0.865 fold
AAUG: 1.11 fold
GCCA: 0.729 fold
AUAA: 0.965 fold
UGCG: 0.873 fold
GCGU: 1.04 fold
AACC: 0.744 fold
AUCU: 0.701 fold
GGAC: 0.865 fold
GCUU: 0.73 fold
CGUC: 1.15 fold
